Published values collected from several papers.
Each line is one published result; not all experiments were run side by side. Values joined by “and” are separate records of one study, mostly repeats; a detail may differ. Numbers after ± are the reported error.

O=C(O)c1cccc(C(=O)O)c1
apparent dissolution enthalpy (betaine/ethylene glycol DES-water; DES mass fraction 0.40): 1.81 kcal/mol

OC[C@H]1O[C@@H](c2ccc(F)c(Cc3cc4ccccc4s3)c2)[C@H](O)[C@@H](O)[C@@H]1O
renal clearance (Japanese type 2 diabetes patients, plasma; oral, 50 mg/day, day 14): 2.15 ± 0.47 mL/min

CCOc1c([C@H](C)n2nc(C)c3c(N)ncnc32)cc(Cl)c(F)c1[C@@H]1CNC(=O)C1
share of patients (item: ΔQTcF > 60 ms; previously treated B-cell malignancy; oral, dose not given, baseline QTcF ≤450 ms, all doses): 1.5%

O=C(Nc1nc2cccc(-c3ccc(CN4CCS(=O)(=O)CC4)cc3)n2n1)C1CC1
treatment-emergent adverse events (item: headache; human rheumatoid arthritis patients; oral, 200 mg once daily, 4 weeks, regardless of relatedness): 25%

CC(=O)O[C@H]1C(=O)[C@@]2(C)[C@H]([C@H](OC(=O)c3ccccc3)[C@]3(O)C[C@H](OC(=O)[C@H](O)[C@@H](NC(=O)c4ccccc4)c4ccccc4)C(C)=C1C3(C)C)[C@]1(OC(C)=O)CO[C@@H]1C[C@@H]2O
adverse events, any (patients with advanced solid tumours; intravenous, dose not given, phase Ib, probably related to compound): 70%

CC1(COc2ccc3c(c2)ncn3-c2ccc3cccc(N4CCC(N)CC4)c3n2)COC1
CL/F (human patients, recurrent/progressive HGG or DIPG, serum; oral, 220 mg/m^2, day 1, median): 27.9 L/h/m²

Cc1ccc(Sc2ccccc2N2CCNCC2)c(C)c1
participants with TEAE (item: feeling abnormal; healthy adult men; oral, 20 mg daily, 12 days): 0%

CC(C)OC(=O)[C@@H](C)N[P@@](=O)(OC[C@H]1O[C@@H](n2ccc(=O)[nH]c2=O)[C@](C)(Cl)[C@@H]1O)Oc1ccccc1
lag time increase (human; oral; baseline: capsule over tablet): 65%

CCc1cc(C(=O)NC)c2nccc(N3CCc4c(cc(Cn5ccnc5)cc4-c4cn(C)nc4C(F)(F)F)C3=O)c2c1
body weight change (Sprague Dawley rat; oral, 50 mg/kg once daily, day 3, 7-day toxicology study; baseline: day 1): 6.9%

NC1(C(=O)N[C@@H](CCO)c2ccc(Cl)cc2)CCN(c2nc[nH]c3nccc2-3)CC1
incidence of Diarrhoea (metastatic CRPC patients; 320 mg b.i.d., any grade, treatment-related, with: enzalutamide 160 mg daily): 100%

O=C1NC(=O)/C(=C/c2ccc3ncnc(N4CCC(F)(F)CC4)c3n2)S1
body weight (NSG mice; dose not given, day 3): 16.8 g and 17.6 g and 17.3 g and 18.7 g

C=CCn1c(=O)c2cnc(Nc3ccc(N4CCN(C)CC4)cc3)nc2n1-c1ccc2c(n1)[C@@](O)(CC)CC2
Cmax (A-427, female NOD/SCID mouse xenograft, plasma; oral, 20 mg/kg once daily): 1170 ng/mL

Cn1cncc1-c1c(F)cncc1NC(=O)c1c(N)nn2cc(F)cnc12
grade ≥1 adverse events (patients, advanced solid tumours; oral, 180 mg once daily, 2 weeks on 1 week off; baseline: patients): 100%

CNC(=O)c1ccc(-c2cnc3ncc(Cc4ccc5ncccc5c4)n3n2)cc1F
unbound AUC(0-inf) (human moderate hepatic impairment; oral, 200 mg single dose, adjusted geometric mean): 182 ng·h/mL

C[C@H]1CN(C(=O)CC#N)[C@]12CCN(c1ncnc3[nH]ccc13)C2
subjects with Nausea (healthy human; oral, 3 mg single): 0%

C[C@@H]1OC(=O)[C@H](Cc2ccccc2)[C@H]1O
DT50 (aerobic dark soil incubation; clay loam soil; 20 °C, modelling endpoint): 2.31 days

O=C1NCCc2nc(OCc3cccc(F)c3)ccc21
Irwin test score (item: Ptosis; Sprague-Dawley rat male; oral, 100 mg/kg, 4 h; direction not given): 0

CCO[C@H]1CCN(Cc2c(OC)cc(C)c3[nH]ccc23)[C@H](c2ccc(C(=O)O)cc2)C1
incidence alkaline phosphatase increase (PNH patients, active haemolysis; oral, 50 mg, treatment): 16.7%

Repeated from above:
C[C@@H]1OC(=O)[C@H](Cc2ccccc2)[C@H]1O
DT50 (aerobic dark soil incubation; clay loam soil; 20 °C, modelling endpoint): 2.31 days

O=C1NCCc2nc(OCc3cccc(F)c3)ccc21
Irwin test score (item: Ptosis; Sprague-Dawley rat male; oral, 100 mg/kg, 4 h; direction not given): 0
